Assay results pooled from the literature.
Parts stem from different laboratories: compare values within a part only.

Study 1 — technique: RNA Bind-n-Seq; form: RNA; medium: in vitro; tested at: not given; reference: input RNA pool; reading: higher = stronger binding; measurement: bound/input enrichment
Target: RING finger protein unkempt homolog, zinc fingers 1-6, GST-SBP tag (UNK, Homo sapiens, UniProt Q9C0B0, residues 30-357)
Notes: RNA with constant flanks, human-mouse chimeric sites, ends assumed
Construct (chain): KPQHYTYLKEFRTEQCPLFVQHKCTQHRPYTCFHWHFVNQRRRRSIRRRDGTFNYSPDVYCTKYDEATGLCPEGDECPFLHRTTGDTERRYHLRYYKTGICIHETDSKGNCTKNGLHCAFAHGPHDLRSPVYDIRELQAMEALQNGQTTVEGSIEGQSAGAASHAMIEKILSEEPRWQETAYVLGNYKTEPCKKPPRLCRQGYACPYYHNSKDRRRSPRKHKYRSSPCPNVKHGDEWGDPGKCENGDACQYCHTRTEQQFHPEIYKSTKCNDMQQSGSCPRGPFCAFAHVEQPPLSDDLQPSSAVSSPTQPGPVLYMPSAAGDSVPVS
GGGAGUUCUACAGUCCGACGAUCCUUAAUGUUAAUAUUUUUGAAUAAAUGAAGCUAAAAUGUCUGCUUUUGGUACUACAUGCAUUAAUAAAAGGUUAAGUUUUGUUUUCCACUGAAGUACUAUUUAACAUCUCAGAAAAAAACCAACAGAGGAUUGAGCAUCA: 0.225 ratio
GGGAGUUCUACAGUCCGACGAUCCUGUGUGUGCUGAAUAAAUGGCUUGUAAAGAAGUUUUUCCAAGCUGUAACCCAUGCUUCCCUUAGAGUUGCUGCAAAAUGUUCUUCCUGAUAUUGAUGUUUGUUUACAACUGAAGGUCUCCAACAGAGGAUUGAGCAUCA: 0.159 ratio
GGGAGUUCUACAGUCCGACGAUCUUCAAAGAAAAGGGCAGCUGUGUCAUUUCAUAAGUAAAACUGCAUCCGGGAAAUUCUGUUCUUUUGUUUAAUUUUCCCCCAAAUGAAGCCAAAGUGUUUUUUAAGGAACUGAGAAAAAAUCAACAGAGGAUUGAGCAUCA: 0.304 ratio
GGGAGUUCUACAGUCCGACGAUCAAAGAGAAAGCUAAAACACUAAUAGAGAAGAGGAUUGGCAAAGAGAAUUUCAUAGAGAAACUAGGAUUUUAUUAGCAACAUGAGUUAUAUUCCAGAGCGUCUCAGAAACCCCAGCCAAACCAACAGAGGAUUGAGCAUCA: 9.7 ratio
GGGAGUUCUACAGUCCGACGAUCGCUCCUCCCCGCUCUGCAGCCUGGGGACACUGGGCUGGGACCAGAAUCCAGCUUUCUUUUAAUAGUGUCAGUGUAACUGUAUCCCGUGACAUUUCAUUUUUUUUAAAUAGUGUAUUUUUUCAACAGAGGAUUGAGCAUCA: 8.05 ratio
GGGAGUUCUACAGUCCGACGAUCAAAGAACUACUGAGGCAAGGCAGCAAAUUUAGGAGAGACAUUUCAACAAUAUUGAUAGAGUUAGGAUUCCAAAUUAAAAAGAAAACUAAGACAUUAUAUAUCAACAAAGCCAAUAUCUGGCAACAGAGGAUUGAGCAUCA: 10.9 ratio
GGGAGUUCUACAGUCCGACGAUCGAGCGUCUUGCCCGCACCGGGAUCAUAGUGACCACGAGUGAGGCUGUCCUCCUACAGCUGGUGGCUGACAAAGACCACCCGAAGUUCAAGGAAAUUCAGAACCUAAUUAAGGCGAGUGCCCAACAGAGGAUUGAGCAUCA: 0.111 ratio
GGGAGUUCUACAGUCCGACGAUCAUCAAAUACUUUGGGGACAUCAUUAGUGUGGGACAGAGACUGUUGCAAGGAGCUCGGAUCUUAGGGAUUCCUGUUAUCAUAACGGAACAAUACCCUAAAGGACUUGGCAGCACCGUUCAACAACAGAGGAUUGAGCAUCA: 0.169 ratio
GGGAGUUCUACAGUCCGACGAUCGGGGAGAAACCUUACGAAUGCGUUCAGUGUGGGAAAUCCUACAGUCAGAGCUCAAACCUCUUCAGACAUCAGAGAAGACACAAUGCAGAAAAACUUUUGAAUGUUGUGAAGGUUUAAGAACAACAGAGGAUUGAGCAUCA: 0.195 ratio
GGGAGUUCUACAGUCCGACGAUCCCCCAAUACCAUUUGCAGGUCUGGAACUGCACUCUCUUUAAAGUUUUACAUGUAUACAUUUUAGGGCUGUAGAUUUAUUUUCCUGGUUUUGUUUUUCAUUGCUGACUUUUGAGCACAGAACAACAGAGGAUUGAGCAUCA: 1.75 ratio
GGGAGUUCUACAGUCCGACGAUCAUGGAACAUUUCGAUGCGUCACUCAGUACCUAUUUCAAGGCCUUCCUAGGCCCUCGAGAUACUAGAGUCAAAGGAUGGUUCCUCCUGGACAAUUACAUCCCUACGUUUGUCUGUUCUGUUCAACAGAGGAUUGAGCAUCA: 0.0784 ratio

Study 2 — technique: universal PBM; form: double-stranded DNA, one strand shown; medium: in vitro; tested at: 600 nM; reading: higher = stronger binding; measurement: E-score
Target: Sal-like protein 4, full length isoform A (SALL4, Homo sapiens, UniProt Q9UJQ4, residues 1-1053)
Chain of UniProt Q9UJQ4 (whole entry, looked up): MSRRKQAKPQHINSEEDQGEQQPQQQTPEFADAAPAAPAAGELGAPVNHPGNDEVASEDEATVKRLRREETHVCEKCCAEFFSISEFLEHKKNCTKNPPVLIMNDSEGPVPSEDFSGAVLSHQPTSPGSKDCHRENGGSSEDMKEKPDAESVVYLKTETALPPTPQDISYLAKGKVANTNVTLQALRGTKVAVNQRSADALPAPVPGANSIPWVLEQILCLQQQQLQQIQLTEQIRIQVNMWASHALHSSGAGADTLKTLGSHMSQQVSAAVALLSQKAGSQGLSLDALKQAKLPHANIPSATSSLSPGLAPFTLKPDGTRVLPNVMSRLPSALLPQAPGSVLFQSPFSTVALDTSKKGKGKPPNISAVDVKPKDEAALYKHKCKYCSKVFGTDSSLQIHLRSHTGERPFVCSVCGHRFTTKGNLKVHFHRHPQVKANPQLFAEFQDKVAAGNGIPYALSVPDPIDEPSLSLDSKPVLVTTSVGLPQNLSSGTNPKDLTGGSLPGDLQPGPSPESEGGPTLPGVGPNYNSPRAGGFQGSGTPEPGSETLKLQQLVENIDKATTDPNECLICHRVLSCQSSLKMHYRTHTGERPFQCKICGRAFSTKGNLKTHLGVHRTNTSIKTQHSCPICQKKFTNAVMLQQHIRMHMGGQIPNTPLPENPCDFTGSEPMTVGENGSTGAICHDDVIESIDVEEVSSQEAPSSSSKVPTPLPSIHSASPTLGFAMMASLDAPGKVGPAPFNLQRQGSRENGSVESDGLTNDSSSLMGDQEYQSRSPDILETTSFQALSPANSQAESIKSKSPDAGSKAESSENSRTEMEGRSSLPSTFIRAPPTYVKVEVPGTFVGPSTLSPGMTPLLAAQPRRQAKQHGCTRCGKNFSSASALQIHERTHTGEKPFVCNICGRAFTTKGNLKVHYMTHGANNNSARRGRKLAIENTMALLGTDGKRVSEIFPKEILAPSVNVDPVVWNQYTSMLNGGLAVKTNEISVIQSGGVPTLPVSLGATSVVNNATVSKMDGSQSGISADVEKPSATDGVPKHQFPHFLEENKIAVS
Notes: 8-mer, flanks averaged, mean of replicates
TAACAGAA: 0.211
CGCGAACG: -0.196
TCTGACAA: 0.183
AGCCTCCA: -0.18
ACGCACAT: 0.0496
ATGACAAT: 0.299
AGTCGGTA: -0.093
CAACGGGC: -0.162
CGGCGGTC: -0.384
ACAGACTC: -0.0837
ATGCAACA: 0.0952
GCGGTTGA: -0.137
GGTCACGA: -0.186
ACGCTCCG: -0.268
ATCAGTCG: 0.038
GGTACTTA: 0.0389
ACCAAGAC: 0.00207
ATGTGATC: 0.118
CGGATAAA: 0.209
CGTATATC: 0.091
CCTCAAAA: 0.0878

Study 3 — technique: RNA Bind-n-Seq; form: RNA; medium: in vitro; tested at: 365 nM; reference: no-protein control; reading: higher = stronger binding; measurement: RBNS enrichment (R)
Target: RNA binding protein fox-1 homolog 2, RRM domain, GST-SBP tag (RBFOX2, Homo sapiens, UniProt O43251-10, residues 100-194)
Notes: natural RNA segment, single round, ends assumed
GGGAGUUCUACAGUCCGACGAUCUCCUGCCCCUGACCGUGACCCAGAACUUGACCAUGAUAGAAGAGAGCCUCACCUCUGAGUUCAUUCAUGACAUCGACCGAGAACUGAAGACUAUCCAAGCUGUGCUGACUUGGAAUUCUCGGGUGCCAA: 1.26
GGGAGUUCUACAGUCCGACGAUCAAGAUUUGCUGAUGCCAGACGAUCUACCCCAGCAUGUGAAUGCAUAAUGGACAUUGCCAUCUCUGCCCUUUGGUCCUCCUUGCUUCUCUCCAUACAAUAAGACACCUCCGUGGAAUUCUCGGGUGCCAA: 6.39
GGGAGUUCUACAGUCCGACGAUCGAGUAUUUUAGUGGGAAGUUGCCAACUUUUUAAGAAUGAGCAGUUGACAAGGGCCAGAGCCUGUCCCUUGUCAGCAGUAGGACAUUUCCAGCUCUUAGGAAUAGAAAGGAUGGAAUUCUCGGGUGCCAA: 0.54
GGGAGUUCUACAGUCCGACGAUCUGCUUUCAAACAUAGAUAAAGCAUGAUAAAGAUUAUUAUUUAAGAUAUACUUGUAUUUAUACCUCAGAUAUUCUUUUGGGUUUUGUACCUCAAGGCUUUUUUCUUCUUAUUGGAAUUCUCGGGUGCCAA: 0.604
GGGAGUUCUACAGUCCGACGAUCAGCAAGAUACUAGUUCUUUGAUACUUUGAGAGGCGCUUUGAUUACCCCGAUUGAAGUCUCUGAAACUUUCCUAUGGUUUUCUGUAUUAUAUGUCUGGAUGGAGCUGUUUAUGGAAUUCUCGGGUGCCAA: 0.41
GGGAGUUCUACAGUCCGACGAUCGCAAGAAGGAAAUAGCCACCGUCUACAGAUGGCUUAGUUAAGUCAUCCACAGCCCAAGGGCGGGGCUAUGCCUUGUCUGGGGACCCUGUAGAGUCACUGACCCUGGAGCGUGGAAUUCUCGGGUGCCAA: 0.436
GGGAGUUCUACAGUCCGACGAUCUGGAGCAGUUAGAAUUUUGAGAGUAAUUACAACAGGAUCACAUUCUGAAAGAGUCACAUUUUGUCAAAAAUCUGAAAAGUAUGCAAUUUGUACAACUCUUACUUUCUAUGUGGAAUUCUCGGGUGCCAA: 0.457
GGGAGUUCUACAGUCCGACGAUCUGCCUGUGACUGCUUUCAAACGCUAGAGGGGGCCUCUGAUUUAAAGAAAUAAAAAGGACUUUUCUAAAAUGGAUGUGUAGUUUAUUUUGCCUUUUGUAAAGCUCUUUUGGUGGAAUUCUCGGGUGCCAA: 1.3
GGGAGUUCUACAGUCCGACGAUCCUCAGUCCCAGCCUCUCCCCUCUACAACUCCUGCCACUGUUGGCCAUGUCGUAAGGCAGCAGCUGUGCCAGGAUAGCUGGGUCCAUUCAGAGCACCUUGAGAAGUGUUGCUGGAAUUCUCGGGUGCCAA: 1.08

Study 4 — technique: protein-binding microarray; form: double-stranded DNA, one strand shown; medium: in vitro; tested at: 250 nM; notes: 60-bp whole probe; with: salmon DNA 0.4 mg/ml; reference: random background probes; reading: higher = stronger binding; measurement: log fluorescence; constant ends, left off below: GCCTAGCAC … GTCTTGATTCGCTTGACGCTGCTG
Target: Interferon regulatory factor 5, full length, phosphomimetic (IRF5, Homo sapiens, UniProt Q13568-2, residues 1-514, K96S/S451D/S453D/S456D/S462D)
TTAGAACTGTGTCTCGATTAGTGCTAG: 0.493 z-score
GACGTACTGGACTATCGGGACGTGCTA: 0.718 z-score
GACGGACTGCTTCTGCTGACGTGCTAG: -0.707 z-score
GAGGGTTTCCTTCTCCTGACGTGCTAG: 0.282 z-score
GACGGACTGAACTTTCGGGACGTGCTA: 4.09 z-score
TTCGGTCTCGGTATCGGTTAGTGCTAG: 6.14 z-score
GACGGTCTCGGTATCGGGAAGTGCTAG: 1.43 z-score
TTAGATATCAGACTGGATAAGTGCTAG: 0.311 z-score
GACGAGCTGGGGTATCGAGACGTGCTA: 0.0754 z-score
GACGAACTGGGGTCTCGAGACGTGCTA: -0.471 z-score
GGAGGCTCTTGCTACTGAAGGTGCTAG: -0.818 z-score
TCATATGTATATATGTGACTGTGCTAG: 0.188 z-score
TTCGGTATCGGTATCGGTTAGTGCTAG: 10.1 z-score
TACAGGTTCTCTTTTATTTTGTGCTAG: 0.842 z-score
GACGAACTGAGGTTTCGAGACGTGCTA: 1.42 z-score
GACGATTTCAGTTCCGAGAAGTGCTAG: 1.54 z-score
TCATCATTTTCTTTAACACTGTGCTAG: 1.39 z-score
TTAGGATTGGGGTTTCGGTTAGTGCTA: 6.83 z-score
GACGGAATCGGTCTCGGGACGTGCTAG: 0.172 z-score
TTTGACATCTTCATCAACTAGTGCTAG: 0.356 z-score
GACGGTTCCGGTTTCGGGACGTGCTAG: 4.65 z-score
GACGAGCTGAGACTGGAGACGTGCTAG: -0.565 z-score
TTAGGTCTCCTACTGCTTTGGTGCTAG: -0.211 z-score

Excerpt of the above (study 2):
AGCCTCCA: -0.18
ACGCACAT: 0.0496
CGGCGGTC: -0.384
CGGATAAA: 0.209
